Measured values pooled from the literature.
Protocols differ between the studies behind these lines. Numbers after ± are the reported error.
STING1 H232R: Stimulator of interferon genes protein (STING1, Homo sapiens, UniProt Q86WV6, H232R)

`O=C(O)[C@@H]1O[C@@H](O[C@H]2[C@H](O)[C@H](O)[C@H](O[C@H]3[C@H](O)[C@H](O)[C@H](O[C@H]4[C@H](O)[C@H](O)[C@H](O)O[C@H]4C(=O)O)O[C@H]3C(=O)O)O[C@H]2C(=O)O)[C@@H](O)[C@@H](O)[C@@H]1O` has a Kd of 397 µM (Beta-lactoglobulin (LGB, Bos taurus, UniProt P02754, A134V/G80D); isothermal titration calorimetry; pH 2.65, 37 °C, 50 mM KH2PO4).
`CCOC(=O)[C@](CC)(CCCSCCOCCOCCN)NC(=O)c1ccc(C2CC2)c(Cc2ccc(F)cc2)n1` gave a Ki of 0.0026 µM (Cannabinoid receptor 2 (Cnr2, Mus musculus, UniProt P47936); ligand displacement, radioligand; cell membranes).
With `Cn1ccc2c(N3CCN(CCCCOc4ccc5c(c4)NC(=O)CC5)CC3)cccc21` the Ki was 0.815 µM (Alpha-2C adrenergic receptor (ADRA2C, Homo sapiens, UniProt P18825); ligand displacement, radioligand).
`O=C(O)C(Cc1c[nH]cn1)N1C(=O)c2ccc3c4ccc5c6c(ccc(c7ccc(c2c37)C1=O)c64)C(=O)N(C(Cc1c[nH]cn1)C(=O)O)C5=O` (stereo not drawn) has a DC50 of > 2.5 µM (human telomeric G-quadruplex DNA; binding, thiazole orange displacement; pH 7).
With `N=C(NCC[C@H](NC(=O)c1noc(-c2cc(F)ccc2F)n1)c1nc2ccccc2[nH]1)c1ccc([N+](=O)[O-])o1` the EC50 was 1.7 µM (STING1 H232R; reporter gene, inhibitor; THP1-Dual KI-hSTING-R232; 24 h, 1 h preincubation, with: diABZI 500 nM).
For `O=S(=O)(c1ccc2c(c1)OCO2)n1cc(CCCCN2CCC(=C(c3ccc(F)c(F)c3)c3ccc(F)c(F)c3)CC2)nn1`, the EC50 was 0.411 µM (ATP-dependent 6-phosphofructokinase, liver type (PFKL, Homo sapiens, UniProt P17858); enzyme activity, activator, ADP-Glo; 2).
`O=C(NCC[C@H](NC(=O)[C@H]1C[C@@H](c2ccccc2)C1)c1nc2ccccc2[nH]1)c1ccc([N+](=O)[O-])o1` gave an EC50 of 5.3 µM (STING1 H232R; reporter gene, inhibitor; THP1-Dual KI-hSTING-R232; 24 h, 1 h preincubation, with: diABZI 500 nM).
`Cc1cccc2c1N(C(=O)n1ccnn1)CC2` has a Kd of 90.8 µM (KAI2 (Arabidopsis thaliana, UniProt Q9SZU7, H246A); ITC; H246A mutant, mean).
The EC50 of `O=C(NC[C@@H](Cc1ccc(F)cc1)N1CCC(O)(C(F)(F)F)CC1)C1(c2ccc(Cl)cc2)CCCC1` is reported as 0.016 µM (Transient receptor potential cation channel subfamily A member 1 (TRPA1, Homo sapiens, UniProt O75762, I905A)).
The IC50 of `Cc1nn(-c2cccc(N)c2)c(=O)c2cnc(Nc3ccc(N4CCNCC4)cc3)nc12` is reported as > 10 µM (Tyrosine-protein kinase SYK (SYK, Homo sapiens, UniProt P43405); enzyme activity, inhibitor).
`CC(=O)N1c2ccc(-c3ccc(CNC(=O)c4cn5cc(-c6cnc(N)nc6)nc(N6CCOCC6)c5n4)cc3)cc2CC[C@@H]1C` has a Kd of 0.069 µM (Bromodomain testis-specific protein, BD2 (BRDT, Homo sapiens, UniProt Q58F21); binding, competition with immobilised ligand).
The EC50 of `O=C(N[C@@H](CCCCNC(=O)c1ccc([N+](=O)[O-])o1)c1nc2ccccc2[nH]1)c1ccc(-c2ccccc2)o1` is reported as 17.6 µM (STING1 H232R; reporter gene, inhibitor; THP1-Dual KI-hSTING-R232; 24 h, 1 h preincubation, with: diABZI 500 nM).
`O=C(O)C(Cc1c[nH]cn1)N1C(=O)c2ccc3c4ccc5c6c(ccc(c7ccc(c2c37)C1=O)c64)C(=O)N(CCN1CCCCC1)C5=O` (stereo not drawn) gave a DC50 of 0.28 ± 0.11 µM (human telomeric G-quadruplex DNA; binding, thiazole orange displacement; pH 7).
With `O=C(N[C@@H](CCCCNC(=O)c1ccc([N+](=O)[O-])o1)c1nc2ccccc2[nH]1)c1ccc(-c2ccccc2)nc1` the EC50 was 3.3 µM (STING1 H232R; reporter gene, inhibitor; THP1-Dual KI-hSTING-R232; 24 h, 1 h preincubation, with: diABZI 500 nM).
For `CC(=O)c1cnc2ccc(-c3cc(Cl)c(O)c(Cl)c3)nc2c1N[C@H]1CC[C@H](CN(C)C)CC1`, the Kd was 1.5 µM (Receptor-like protein kinase FERONIA (FER, Arabidopsis thaliana, UniProt Q9SCZ4, M613A); binding, SPR; mutant protein).
`O=C(N[C@@H](CCNC(=O)c1ccc([N+](=O)[O-])o1)c1nc2ccccc2[nH]1)c1ccc2ccccc2c1` gave an EC50 of 16.7 µM (STING1 H232R; reporter gene, inhibitor; THP1-Dual KI-hSTING-R232; 24 h, 1 h preincubation, with: diABZI 500 nM).
`CO[C@@H]1[C@H](OP(=O)(O)OC[C@H]2O[C@@H](n3cnc4c(=O)[nH]c(N)nc43)[C@H](O)[C@@H]2O)[C@@H](COP(=O)(O)OP(=O)([O-])OP(=O)(O)OC[C@H]2O[C@@H](n3c[n+](C)c4c(O)nc(N)nc43)[C@H](O)[C@@H]2O)O[C@H]1n1cnc2c(N)ncnc21` gave a Kd of 0.06 µM (Antiviral innate immune response effector IFIT1 (IFIT1, Homo sapiens, UniProt P09914); microscale thermophoresis; pH 7.5, with: unstructured cap II RNA, 35 nt).
The EC50 of `O=C(NCC[C@H](NC(=O)c1cnc(-c2ccccc2)o1)c1nc2ccccc2[nH]1)c1ccc([N+](=O)[O-])o1` is reported as 13.8 µM (STING1 H232R; reporter gene, inhibitor; THP1-Dual KI-hSTING-R232; 24 h, 1 h preincubation, with: diABZI 500 nM).
The DC50 of `O=C1c2ccc3c4ccc5c6c(ccc(c7ccc(c2c37)C(=O)N1CCN1CCCCC1)c64)C(=O)N(CCN1CCCCC1)C5=O` is reported as 0.98 ± 0.08 µM (human telomeric G-quadruplex DNA; binding, thiazole orange displacement; pH 7).
The EC50 of `O=C(N[C@@H](CCNC(=O)c1ccc([N+](=O)[O-])o1)c1nc2ccccc2[nH]1)c1cnn(-c2ccccc2)c1` is reported as 14.7 µM (STING1 H232R; reporter gene, inhibitor; THP1-Dual KI-hSTING-R232; 24 h, 1 h preincubation, with: diABZI 500 nM).
`COc1ccc(C(=O)c2c(C(=O)NCCCN(C)C)oc3ccc(Cl)cc3c2=O)cc1OC` gave an EC50 of 0.501 µM (Growth hormone secretagogue receptor type 1 (GHSR, Homo sapiens, UniProt Q92847); Gαs dissociation, agonist, TRUPATH BRET; HEK293T).

Excerpt of the above:
`O=C(N[C@@H](CCNC(=O)c1ccc([N+](=O)[O-])o1)c1nc2ccccc2[nH]1)c1ccc2ccccc2c1` gave an EC50 of 16.7 µM (STING1 H232R; reporter gene, inhibitor; THP1-Dual KI-hSTING-R232; 24 h, 1 h preincubation, with: diABZI 500 nM).
`CO[C@@H]1[C@H](OP(=O)(O)OC[C@H]2O[C@@H](n3cnc4c(=O)[nH]c(N)nc43)[C@H](O)[C@@H]2O)[C@@H](COP(=O)(O)OP(=O)([O-])OP(=O)(O)OC[C@H]2O[C@@H](n3c[n+](C)c4c(O)nc(N)nc43)[C@H](O)[C@@H]2O)O[C@H]1n1cnc2c(N)ncnc21` gave a Kd of 0.06 µM (Antiviral innate immune response effector IFIT1 (IFIT1, Homo sapiens, UniProt P09914); microscale thermophoresis; pH 7.5, with: unstructured cap II RNA, 35 nt).
The EC50 of `O=C(NCC[C@H](NC(=O)c1cnc(-c2ccccc2)o1)c1nc2ccccc2[nH]1)c1ccc([N+](=O)[O-])o1` is reported as 13.8 µM (STING1 H232R; reporter gene, inhibitor; THP1-Dual KI-hSTING-R232; 24 h, 1 h preincubation, with: diABZI 500 nM).
